# Published values from different studies.
# Numbered parts are unrelated; each lists some results of a single study.

# Block 1 — technique: competition protein-binding microarray; molecule type: double-stranded DNA, one strand shown; sample: in vitro; tested at: 2 µM; together with: Pho4 competitor, 0.05 µM; reading: higher = stronger binding
# Target: Centromere-binding protein 1, full length, His-tagged (CBF1, Saccharomyces cerevisiae, UniProt P17106, residues 1-351)
# UniProt P17106, sequence (whole entry, looked up): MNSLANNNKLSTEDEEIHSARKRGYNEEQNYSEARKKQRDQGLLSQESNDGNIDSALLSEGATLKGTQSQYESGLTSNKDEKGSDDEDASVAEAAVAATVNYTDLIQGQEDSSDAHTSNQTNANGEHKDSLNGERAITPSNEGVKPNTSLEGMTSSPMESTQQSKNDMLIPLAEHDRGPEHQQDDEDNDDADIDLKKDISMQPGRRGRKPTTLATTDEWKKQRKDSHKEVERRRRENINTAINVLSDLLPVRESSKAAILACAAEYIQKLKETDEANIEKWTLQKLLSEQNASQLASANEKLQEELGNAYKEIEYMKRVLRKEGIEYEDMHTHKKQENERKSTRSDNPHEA
# Notes: whole 60-bp probe, lowest competitor level
Oligonucleotide,fluorescence intensity [a.u.]
TCAGCCTGCTGGATGCACGTGCGTCTCGGCGCCGCCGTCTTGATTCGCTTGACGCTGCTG,702
TGCGCAACAACTTGACGGGTGGGTGTATGTCTAGAAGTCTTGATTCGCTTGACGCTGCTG,72.8
CTTTCCCGATCTTGCATCGTGGGTGTAGCACATTTGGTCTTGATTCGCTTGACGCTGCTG,79.1
CTAACGAAGGTTTTTCACGTGGTATACAAGCCAAGTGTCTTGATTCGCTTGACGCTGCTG,1160
TGCGCAACAACTTGATCCGTGGGTGTATGTCTAGAAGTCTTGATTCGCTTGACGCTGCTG,65.4
CAATCTTGGCGTTCACACGTGGGTATAAAAAGGCAAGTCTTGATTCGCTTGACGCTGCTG,999
TTGTTTCATCCAGGGTACGTGGCCGCACTTGTCAATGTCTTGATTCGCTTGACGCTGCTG,58.2
TCCGTACTACTGGCGTACGTGCGATGAATTAATCGGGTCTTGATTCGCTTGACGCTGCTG,70.2
AGAGCGTTCGCGTTTCTCGTGCCGAGTGCTTTTAACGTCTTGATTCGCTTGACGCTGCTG,76.1
CGTCCTAGTGATTTTCACGTGAACTCCATGAGGAAGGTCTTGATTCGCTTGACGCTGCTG,969
CGGGGTTAAGTTTGTGGGGTGGGTGGCTTGCAGCAGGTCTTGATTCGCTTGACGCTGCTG,65.9
CTTTCCCGATCTTGTCCAGTGGGTGTAGCACATTTGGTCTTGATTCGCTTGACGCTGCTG,81.8
TTTAACCTCTAGTAAGAAGGACCCGGCACTTATTGTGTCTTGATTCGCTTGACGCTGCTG,51.7
AAATTACTAAGTTGGTAAGTGGGTGACGCCGTATGAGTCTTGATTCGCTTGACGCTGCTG,76.3
TGTATTGATTTTTAGAACGTGAAAAGGATAAACTGAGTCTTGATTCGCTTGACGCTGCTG,117
TTTAATCGCTCTACCCACGTTTTTTTATCCAGTGCTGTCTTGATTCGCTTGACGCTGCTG,130
AAAGCGGTAATTTGCATGGTGGGTGCAGATATCTATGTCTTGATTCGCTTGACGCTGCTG,72.1

# Block 2 — technique: protein binding microarray; molecule type: double-stranded DNA, one strand shown; sample: in vitro; tested at: not given; reference: not given; reading: higher = stronger binding
# Target: Histone acetyltransferase KAT6A, both winged helices, GST fusion (KAT6A, Homo sapiens, UniProt Q92794, residues 1-181)
# Notes: 8-mer, flanks averaged, mean of 2 arrays, mostly near background
# Construct (chain): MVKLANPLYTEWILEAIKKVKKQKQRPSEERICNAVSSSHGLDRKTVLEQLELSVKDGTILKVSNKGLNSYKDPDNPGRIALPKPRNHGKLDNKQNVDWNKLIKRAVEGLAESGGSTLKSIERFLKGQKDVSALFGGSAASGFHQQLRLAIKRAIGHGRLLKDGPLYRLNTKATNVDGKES
Oligonucleotide,E-score
CTTACCCC,-0.154
ATTGAGCA,-0.111
CCCGGCAA,0.202
GCGACTCA,-0.0183
AGATTTCC,-0.142
CGGTAAGC,0.153
CTCGTCGA,-0.236
TATGGTAA,0.0455
CATTATAC,-0.045
GTATCCTA,-0.0854
TTATACAA,-0.1
GCGTGTTA,0.206
TCTCACAA,0.00253
GGTCGCAC,0.179
GGGGAGAA,-0.144
GAAGCTCA,-0.0739
CATGTTCA,-0.115

# Block 3 — technique: RNA Bind-n-Seq; molecule type: RNA; sample: in vitro; tested at: 365 nM; reference: no-protein control; reading: higher = stronger binding
# Target: RNA binding protein fox-1 homolog 2, RRM domain, GST-SBP tag (RBFOX2, Homo sapiens, UniProt O43251-10, residues 100-194)
# Notes: natural RNA segment, single round, ends assumed
# Construct (chain): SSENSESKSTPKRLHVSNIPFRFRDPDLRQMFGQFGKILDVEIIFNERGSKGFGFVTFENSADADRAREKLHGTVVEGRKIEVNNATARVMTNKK
Oligonucleotide,RBNS enrichment (R)
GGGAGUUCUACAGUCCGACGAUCGUGGUUUGCCCCCCAGGUGUAAUUUUUCUUUUGUUAUUAUUCCUCCUCCUAUUGUGUAUAGGUGUGUAUAUGUGUGUAAAUAUUUCACACAACAACAUCUGUACAAGCAUUGGAAUUCUCGGGUGCCAA,0.842
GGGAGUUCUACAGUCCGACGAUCCAAGUGCUUUACCCCCGAACUACACCUGAAGCUCCAUUCCUUGUCCCUUCUGCACCAUUUAAAGGUGGGAACUAUAUUUUGACUUUAUCUACCUCUGAGAAAGAGGAAAAUGGAAUUCUCGGGUGCCAA,0.558
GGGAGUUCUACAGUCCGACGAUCCUAUCACUGUUAAGGGGGGGGGAAAGUGAGGUUCGAGGAUGACGUAGGUAACUCUCCCCUCCCAAGUCCAUGUUCCAAGUGGCUAUGUAAAGCAAGAUGAUACAGAAAGCUGGAAUUCUCGGGUGCCAA,0.774
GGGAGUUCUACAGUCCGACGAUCUAGCGACACACUCCUCAUCCAGGCUUCCCAAGAUACACUAGCUCUGGGACACCCCAGGCAUGCUCUCAAACUAGUCAUGGGGCCUUCUGAGGACAGUUCCAUCCUACCUUUGGAAUUCUCGGGUGCCAA,1.4
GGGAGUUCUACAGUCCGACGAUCCGUGGCAUAGAAAAGAACAUGUUCAGAAGCCAUGGGGCCAAGCACAUGCGGGGACGGUCUCAAAUGCGUGAUCAGAGAAUCCUUCACCUUUGCUGAAAAGUGAGCUCAGAUGGAAUUCUCGGGUGCCAA,0.3
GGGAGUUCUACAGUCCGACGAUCAAUGUUGACUCCAAGGUCCCUAGGAAAUCUCACGAUACACUGGCCGCUGGUUGGUACACUGAUUUCCAGGAAAAGCCCCAGAAGCAGUAGAGGGAGAGCCAUGUACUUGGUGGAAUUCUCGGGUGCCAA,0.305
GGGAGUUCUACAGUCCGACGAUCCUCAGGCAUGACUACGCUGUUUGAAACAGACAGAUGUUUACUCUUCCUUGUAAUGAGUAGGUUUGGAUUUAAGAGCCGAUUAGAGGCUACUUCCUGUAAACAAGUACAGGUGGAAUUCUCGGGUGCCAA,0.63
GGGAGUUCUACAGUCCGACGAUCCGUCGCACUCUGAGUGGGCCAACCCCGACCGUCAGCUCUGCUGUGCUCGGUGGAUGCUGGGCCCAAGGUGUAGGCAGAAUGAUUGGCCAGCUGGCCUCUCUCAUCUCUCAUGGAAUUCUCGGGUGCCAA,0.487
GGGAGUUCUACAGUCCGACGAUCACCUUUCUUUAGUGAAUGUCAAAUCAGAAACAAAUUGUAGACCUAGGAACUGUAUUAAAGUUUAGUUUACUAUAGAUUGGUCCCCACUGAAGACUUUCUCCACUCUGACCUGGAAUUCUCGGGUGCCAA,0.426
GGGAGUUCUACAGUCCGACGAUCUAUGGUAUGACUUGAAUCAGUUUUGAUUCUAUGUGUAAGUUCUCAUCGUUUGGAACCUGGUAUUUCUGUUGUGUUCUUGGCAGUGCAUAGGAACCCAGCCUCCUGUGUUUUGGAAUUCUCGGGUGCCAA,0.449
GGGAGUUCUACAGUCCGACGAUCAGGCUCCCUUGUGUGUCCCUAUACCCUCCAGCCCUCCUUUAGGGUUCUUUUGGGGGUAAGGGGCUAACUGCUCAAGAAAAUCUUGAUCCCCUCUCUUGUCUCCAUUAUUUUGGAAUUCUCGGGUGCCAA,0.41
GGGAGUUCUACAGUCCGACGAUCCAUAGAAAAACUGUUCUCAGUUUUAUUUUUACCUAACACUAACAUGAGUAACCUAAGGGAAGUGCUGAAUGGUGUUGGCAGGGGUAUUAAACGUGCAUUUUUACUCAACUUGGAAUUCUCGGGUGCCAA,0.431

# Block 4 — technique: RNAcompete; molecule type: RNA; sample: in vitro; tested at: 20 nM; notes: 7-mer, probes averaged, single round; reference: mean of 7-mers; reading: higher = stronger binding
# Target: PABPC1L2, full length, GST fusion (mouse, UniProt A0ABA7IW68)
# Construct (chain): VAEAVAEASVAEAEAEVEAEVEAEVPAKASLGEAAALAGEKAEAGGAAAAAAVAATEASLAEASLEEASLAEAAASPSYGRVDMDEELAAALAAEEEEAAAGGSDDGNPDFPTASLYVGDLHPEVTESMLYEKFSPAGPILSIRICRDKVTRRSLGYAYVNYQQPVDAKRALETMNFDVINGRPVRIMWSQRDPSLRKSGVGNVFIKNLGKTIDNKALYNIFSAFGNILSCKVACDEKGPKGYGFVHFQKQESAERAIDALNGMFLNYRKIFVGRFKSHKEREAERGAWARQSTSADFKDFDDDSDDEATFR
Oligonucleotide,7-mer Z-score
CAAAGAG,0.617
AGCGUAA,0.0116
AAUCGUC,-0.112
AUAUUGU,-0.128
CUUCCAC,-0.353
AGGAAAC,0.327
GCGUUAC,-0.171
AUGCCGG,-0.0953
ACGACGG,0.0768
GACCGGU,-0.248
ACCCGCU,-0.351
GCUACUG,-0.28
UCGCAGC,-0.28
AUCAGGG,0.215
CAGAACG,0.017
UGGUGUA,0.126
GCAUUAU,-0.117
GAAGGAG,0.131
UAUGAUU,-0.141
UAGGGAA,0.146

# Block 5 — technique: DNA-protein interaction ELISA; molecule type: double-stranded DNA, one strand shown; sample: in vitro, bacterial lysate; tested at: not given; notes: whole dsDNA probe, crude lysate protein; reference: highest signal in screen; reading: higher = stronger binding
# Target: Probable WRKY transcription factor 33, N-terminal DNA-binding domain (WRKY33, Arabidopsis thaliana, UniProt Q8S8P5, residues 169-264)
# Residues (chain): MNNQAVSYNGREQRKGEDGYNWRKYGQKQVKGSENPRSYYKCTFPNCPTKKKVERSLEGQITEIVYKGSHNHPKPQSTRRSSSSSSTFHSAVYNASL
Oligonucleotide,relative absorbance
AAAAAAACCGATTACCATTTTTACTGAAAA,24.8 % of maximum
AAAAAAACCCGGCCGCCATGGTAGTAAAAA,22.1 % of maximum
AAAAAAAAGGACATTTTTTCTTTTTGAAAA,25.6 % of maximum
AAAAAAGAGTGGTTTATTAATGTATAAAAA,22.1 % of maximum
AAAAAATGTCTTCTTACACCCTCTAGAAAA,23.5 % of maximum
AAAAAACGGTAAGTCGACAAAA,24.1 % of maximum
AAAAAATCCTTTTCTCTTTCTGTTTCAAAA,27.5 % of maximum
AAAAAACCGACCTGCACGTCGCTGCTAAAA,21.7 % of maximum
AAAAAAACAGCTCGGTGCCACTGTGGAAAA,22.3 % of maximum
AAAAAATATGTTTTCGCTTTATTCTTAAAA,16 % of maximum
AAAAAACCAACTCTCTTTCGGACTATAAAA,17.9 % of maximum
AAAAAAACTATAGTCTTTGTCATGATAAAA,16.2 % of maximum

# Block 6 — technique: universal PBM; molecule type: double-stranded DNA, one strand shown; sample: in vitro; tested at: not given; reading: higher = stronger binding
# Target: Sal-like protein 4, full length isoform B (SALL4, Homo sapiens, UniProt Q9UJQ4-2, residues 1-616)
# Notes: 8-mer, flanks averaged, mean of replicates
Oligonucleotide,E-score
AAGCGGCA,-0.179
GGTTTCAA,0.00597
GCGTCCCA,-0.342
CTATGCGA,-0.14
GGCCTCCA,-0.254
AAAGCTCC,-0.271
AGCTCGAT,-0.0596
AGGAGCCG,-0.235
ATCATACC,0.207
CCAGGACC,-0.23
CAGTGCCA,-0.176
CAGAAACA,0.142
CCCTTGGA,-0.0352
ACTCTAAC,0.0756
AACAAGTA,0.225
ACCGGAGC,-0.294
ACGCCGGG,-0.27
AAGCAGTG,-0.167
CCGCGGCC,-0.382
CAAGAAAG,0.0696
AGGAGTGC,-0.179
AAACTTTC,0.198
AGAAGACG,0.0513
CCGTACTA,0.0569
CCTATACA,0.196

# For quick reference, copied from above (block 6):
Oligonucleotide,E-score
AAACTTTC,0.198
CCAGGACC,-0.23
GGTTTCAA,0.00597
AGCTCGAT,-0.0596
AACAAGTA,0.225
CCTATACA,0.196
AAGCAGTG,-0.167
